Measured values from different studies.
Each numbered part is a random draw from the data of one study; scales do not carry over between parts. Positions count from the first letter of the parent shown.

Set 1
Target: Sal-like protein 4, full length isoform B (SALL4, Homo sapiens, UniProt Q9UJQ4-2, residues 1-616)
Technique: universal PBM
Form: double-stranded DNA, one strand shown
Sample: in vitro
Concentration: not given
Setting: 8-mer, flanks averaged, mean of replicates
Reading: higher = stronger binding
Strand	E-score
AGCCGCCT	-0.32
CAGTACGG	-0.015
GGGCAACA	-0.0955
CATAAGGG	0.141
GTAGCCAA	-0.0171
AGGCTTTA	0.108
CCCTTTGC	-0.0877
CTATGGCA	0.121
GGGCTACC	-0.335
ATCAACAG	0.0326
CTTATTAA	0.378
AAGGACAT	0.0819
GGGCTTTA	-0.216
GCTAGACA	0.0886
AGGCTGGG	-0.286
CAGGCCGA	-0.167
GTCGTCAA	-0.0369
GCCCCACC	-0.203
AAATGGCA	0.129
ACCTTCGT	-0.0344
AACTAAGT	0.0786
TGACTCAA	-0.0163
CATGATGA	0.141
CCAACCCA	-0.0941
GCAAAACA	0.0678

Set 2
Organism: Saccharomyces cerevisiae
Read-out: binding
Technique: yeast competitive growth sequencing
Form: peptide
Strain: cyclin D2-Cln2 fusion strain
Setting: peptide tiling library
Reading: direction not given
Sequence	enrichment score
PHKTFRKLRLFDTPHT	-2.81
GTPKRCLDLSNLSSGE	-1.23
RQVRRDLFAF	-2.13
GPVKLEFDVSDGAT	-0.755
YLYLLLTQSLWCRV	-1.55
VKRLNFRSEEME	-1.59
EPRNLLSLFEDTLDPT	-0.417
KRCATPVIIDEILPSK	0.896
SPPRGRRLFPPGPAGF	-0.652

Set 3
Target: Transcriptional repressor CTCF (CTCF, Homo sapiens, UniProt P49711, residues 1-727, full length assumed)
Technique: protein-binding microarray
Form: double-stranded DNA, one strand shown
Sample: in vitro
Concentration: not given
Setting: k-mer, scored over probes, only values ≥0.25
Reading: higher = stronger binding
Construct (chain): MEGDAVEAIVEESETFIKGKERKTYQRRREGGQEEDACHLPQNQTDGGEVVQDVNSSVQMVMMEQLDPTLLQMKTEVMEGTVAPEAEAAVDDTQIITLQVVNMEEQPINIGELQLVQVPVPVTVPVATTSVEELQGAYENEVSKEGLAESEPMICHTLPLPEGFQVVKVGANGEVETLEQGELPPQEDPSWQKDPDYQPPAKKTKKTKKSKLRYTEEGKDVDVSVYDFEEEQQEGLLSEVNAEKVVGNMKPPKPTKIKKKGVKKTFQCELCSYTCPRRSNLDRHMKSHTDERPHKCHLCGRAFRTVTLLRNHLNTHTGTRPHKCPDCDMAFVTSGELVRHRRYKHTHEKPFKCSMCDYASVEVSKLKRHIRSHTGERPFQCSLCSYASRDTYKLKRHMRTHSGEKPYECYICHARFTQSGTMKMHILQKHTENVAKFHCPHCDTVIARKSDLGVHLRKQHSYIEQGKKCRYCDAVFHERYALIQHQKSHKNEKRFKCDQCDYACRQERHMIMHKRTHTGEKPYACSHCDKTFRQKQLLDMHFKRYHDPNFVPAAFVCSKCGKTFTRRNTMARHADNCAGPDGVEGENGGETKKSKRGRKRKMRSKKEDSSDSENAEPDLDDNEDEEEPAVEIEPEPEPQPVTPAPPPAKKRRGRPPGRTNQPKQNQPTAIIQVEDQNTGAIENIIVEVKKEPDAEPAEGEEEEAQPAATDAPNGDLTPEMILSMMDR
Strand	E-score
TCATTACA	0.277
AAAGTATC	0.279
ATATGTGA	0.361
AACTAGCG	0.255
ACATATTA	0.268
AGGGCGCA	0.338
ATATTCAT	0.261
TAAATTAA	0.331
AATGTTTA	0.281
GTACTGCA	0.25
GTATATAC	0.325
CGGCGCCC	0.263
CAATTTAA	0.303
AACCATTA	0.293
ATATAACA	0.369
GGGTAAAA	0.318
TATACTGA	0.261
ACAATTAC	0.268
GGACGTTA	0.257
AATGTTTG	0.271
ATACAGTG	0.337
GGTGGCGA	0.336
AAGTTATA	0.252
CGCGAGTA	0.29
ATTATATA	0.34

Set 4
Target: ABI1, truncated, D143A, DHFR fusion (Arabidopsis thaliana)
Technique: DHFR PCA, deep sequencing
Sample: yeast
Setting: methotrexate growth selection, single substitutions
With: (+)-ABA 1.4 µM
Relative to: wild-type fitted maximum
Reading: higher = stronger binding
Starting sequence: PYL1, truncated, DHFR fusion (Arabidopsis thaliana); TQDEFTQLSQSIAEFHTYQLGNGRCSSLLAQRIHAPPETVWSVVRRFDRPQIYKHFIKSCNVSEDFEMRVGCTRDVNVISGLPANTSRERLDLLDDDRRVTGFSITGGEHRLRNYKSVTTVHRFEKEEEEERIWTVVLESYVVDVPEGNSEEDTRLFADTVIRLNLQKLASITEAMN; partner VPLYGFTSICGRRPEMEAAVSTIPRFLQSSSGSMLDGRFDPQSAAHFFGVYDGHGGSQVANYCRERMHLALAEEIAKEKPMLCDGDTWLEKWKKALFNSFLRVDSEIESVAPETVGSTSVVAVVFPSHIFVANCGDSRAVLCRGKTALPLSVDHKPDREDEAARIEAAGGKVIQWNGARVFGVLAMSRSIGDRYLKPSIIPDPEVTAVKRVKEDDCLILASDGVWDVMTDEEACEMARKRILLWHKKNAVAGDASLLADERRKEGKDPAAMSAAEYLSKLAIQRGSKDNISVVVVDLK
Substitution	relative binding score
T86V	36.1%
H55A	81.6%
T39R	55.8%
E109V	22%
R132G	86%
Y18M	9.22%
E147Q	43.2%
V145W	-14.5%
P83Q	10.9%
T101I	73%
G21R	49.2%
L169D	5.61%
G102E	-5.61%
N85Q	67.6%
G148P	4.64%
V136T	22.1%
D153R	-1.47%
A158L	54.9%
N165G	5.11%
E130A	62.5%

Set 5
Target: Centromere-binding protein 1, full length, His-tagged (CBF1, Saccharomyces cerevisiae, UniProt P17106, residues 1-351)
Chain of UniProt P17106 (whole entry, looked up): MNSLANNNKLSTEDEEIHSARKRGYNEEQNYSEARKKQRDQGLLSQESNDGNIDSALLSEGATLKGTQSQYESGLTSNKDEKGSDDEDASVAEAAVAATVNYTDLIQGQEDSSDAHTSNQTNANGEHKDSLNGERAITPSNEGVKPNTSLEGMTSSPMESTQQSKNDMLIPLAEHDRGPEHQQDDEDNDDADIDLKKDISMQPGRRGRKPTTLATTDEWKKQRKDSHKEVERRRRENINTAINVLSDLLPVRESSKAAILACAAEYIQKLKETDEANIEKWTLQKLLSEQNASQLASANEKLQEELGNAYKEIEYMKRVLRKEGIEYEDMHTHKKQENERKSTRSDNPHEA
Technique: competition protein-binding microarray
Form: double-stranded DNA, one strand shown
Sample: in vitro
Concentration: 2 µM
Setting: whole 60-bp probe, lowest competitor level
With: Pho4 competitor, 0.05 µM
Reading: higher = stronger binding
Constant ends, left off below: … GTCTTGATTCGCTTGACGCTGCTG
Strand	fluorescence intensity [a.u.]
GACACGACTGACAAACAAAAGTTAATATATATTACA	111
GGCCTTCAGGCTTTGCACGCTAGCACACACCTTGGC	55.5
CTTTCCCGATCTTTTCACGTGCCTTTAGCACATTTG	911
GTATGCACCATCTTTCATGTGGGAAATAAGCTTTTT	84.1
GGTCTCCTCGGTGAAAGCGTGATGGGATAGCCGTTA	121
AGCTGGGACTATAGGCACGTGCCACCACACCCAGCT	2100
CCGGTTTTGTAGGACTAGGTGTGTTCAGTGGTGGCT	64.3
CGTCCTAGTGATTGTGGAGTGGGTGCCATGAGGAAG	90.3
AAATTACTAAGTTGCCGAGTGGGTGACGCCGTATGA	65.7
TGTGGGTAATTAGATAATTGTTGGGATTCCATTGTT	72.2
ATTCAACTTTGCTTCCACGTTAGTAGACAGTGGACC	72.1
TGGGGTGTCTGCCATCACGCTTTCCATTTGCACTGT	98.2
TTAGTGCAAGAGGCACACATGCAGATTATGCATCAG	98.1
CGTCCTAGTGATTGGGGAGTGGGTGCCATGAGGAAG	77.6
CGGTCATCGGGCGCGCTCGTGGACGATGACAAGCGC	62.2
GTCTTGTCTCATTGTCGGGTGGGTGTCCCCACTTCA	67.9
AAAGCGGTAATTTGTCACCAAACTTCACATATCTAT	85.3
AAGTTTTTTTCTACACGCATGAGCAGAATTAGACGG	107
GTACTTGATTTAACCTGCGTGCTTTAAGTCGGTAAA	101

A few entries again (set 3):
Strand	E-score
ATTATATA	0.34
TCATTACA	0.277
CAATTTAA	0.303
CGGCGCCC	0.263
CGCGAGTA	0.29
AACTAGCG	0.255
AAGTTATA	0.252
AATGTTTA	0.281
AATGTTTG	0.271
AGGGCGCA	0.338
